Published values from different studies.
Lines come from different studies, so protocols differ. ± gives the spread as reported.

SMILES	assay	system	setting	how to read	quantity	result
N=C(N)NCCC[C@@H]1NC(=O)[C@H](CCCCNC(=O)CCOCCOCCOCCOCCNC(=O)CN2CCN(CC(=O)O)CCN(CC(=O)O)CCN(CC(=O)O)CC2)NC(=O)[C@@H](Cc2ccccc2)NC(=O)[C@H](CC(=O)O)NC(=O)CNC1=O [indium-111 labelled]		athymic nude mice, female, U-87 MG glioma xenograft, tumour and liver	intravenous, 0.5 h	relative to: tumour over liver	tumour to tissue ratio	1.34 ± 0.2
CCCC[C@H](NC(=O)CCCCCCCNC(=O)c1ccc(NN)nc1)C(=O)N[C@H]1CC(=O)NCCCC[C@@H](C(N)=O)NC(=O)[C@H](Cc2c[nH]c3ccccc23)NC(=O)[C@H](CCCNC(=N)N)NC(=O)[C@@H](Cc2ccccc2)NC(=O)[C@H](Cc2c[nH]cn2)NC1=O [technetium-99m labelled]		C57 mouse, B16/F1 melanoma, lung	intravenous, 24 h		uptake	0.14 ± 0.02 %ID/g
N=C(N)NCCC[C@H](NC(=O)[C@H](CCCCN)NC(=O)[C@H](CCC(N)=O)NC(=O)CCOCCOCCOCCNC(=O)CN1CCN(CC(=O)O)CCN(CC(=O)O)CCN(CC(=O)O)CC1)C(=O)N[C@@H](CCCCN)C(=O)N[C@@H](CCCNC(=N)N)C(=O)N[C@@H](CCCCN)C(=O)N[C@@H](CCCCN)C(=O)N[C@@H](CO)C(=O)N[C@@H](CCCNC(=N)N)C(=O)N[C@@H](Cc1ccc(O)cc1)C(=O)N[C@@H](CCCCN)C(=O)N[C@@H](CO)C(=O)O [copper-64 labelled]		C57BL/6 Jms mouse, male, B16-F10 melanoma, tumour and blood	intravenous, 60 min	relative to: tumour over blood	tumour-to-blood ratio	5.11 ± 1.02
CCCC[C@H](NC(=O)CNC(=O)CNC(=O)c1ccc(NN)nc1)C(=O)N[C@H]1CC(=O)NCCCC[C@@H](C(N)=O)NC(=O)[C@H](Cc2c[nH]c3ccccc23)NC(=O)[C@H](CCCNC(=N)N)NC(=O)[C@@H](Cc2ccccc2)NC(=O)[C@H](Cc2c[nH]cn2)NC1=O [technetium-99m labelled]		C57 mouse, B16/F1 melanoma-bearing	intravenous, 0.5 h	relative to: tumour over kidney	tissue uptake ratio	1.23
N=C(N)NCCC[C@@H]1NC(=O)[C@H](CCCCNC(=O)c2ccc(CNC34CNCCNCC(NCc5ccc(C(=O)NCCCC[C@@H]6NC(=O)[C@@H](Cc7ccc(O)cc7)NC(=O)[C@H](CC(=O)O)NC(=O)CNC(=O)[C@H](CCCNC(=N)N)NC6=O)cc5)(CNCCNC3)CNCCNC4)cc2)NC(=O)[C@@H](Cc2ccc(O)cc2)NC(=O)[C@H](CC(=O)O)NC(=O)CNC1=O [copper-64 labelled]	microPET	female athymic nude mouse, U-87 MG xenograft, U-87 MG tumour	intravenous, 4 h, with: c(RGDyK) 10 mg/kg blocking		tumour uptake	0.29 ± 0.05 %ID/g
N=C(N)NCCC[C@@H]1NC(=O)[C@H](CCCCNC(=O)CNC(=O)CNC(=O)CNC(=O)CC[C@H](NC(=O)CCOCCOCCOCCOCCNC(=O)CC[C@H](NC(=O)CN2CCN(CC(=O)O)CCN(CC(=O)O)CCN(CC(=O)O)CC2)C(=O)NCCOCCOCCOCCOCCC(=O)N[C@@H](CCC(=O)NCC(=O)NCC(=O)NCC(=O)NCCCC[C@@H]2NC(=O)[C@@H](Cc3ccccc3)NC(=O)[C@H](CC(=O)O)NC(=O)CNC(=O)[C@H](CCCNC(=N)N)NC2=O)C(=O)NCC(=O)NCC(=O)NCC(=O)NCCCC[C@@H]2NC(=O)[C@@H](Cc3ccccc3)NC(=O)[C@H](CC(=O)O)NC(=O)CNC(=O)[C@H](CCCNC(=N)N)NC2=O)C(=O)NCC(=O)NCC(=O)NCC(=O)NCCCC[C@@H]2NC(=O)[C@@H](Cc3ccccc3)NC(=O)[C@H](CC(=O)O)NC(=O)CNC(=O)[C@H](CCCNC(=N)N)NC2=O)NC(=O)[C@@H](Cc2ccccc2)NC(=O)[C@H](CC(=O)O)NC(=O)CNC1=O [indium-111 labelled]		athymic nude mice, female, U-87 MG glioma xenograft, tumour and blood	intravenous, 24 h	relative to: tumour over blood	tumour to tissue ratio	266 ± 59
CSCC[C@H](NC(=O)[C@H](CC(C)C)NC(=O)[C@H](Cc1c[nH]cn1)NC(=O)CNC(=O)[C@@H](NC(=O)[C@H](C)NC(=O)[C@H](Cc1c[nH]c2ccccc12)NC(=O)[C@H](CCC(N)=O)NC(=O)CCCCCNC(=O)CN1CCN(CC(=O)O)CCN(CC(=O)O)CC1)C(C)C)C(N)=O [gallium-68 labelled]	microPET imaging	mouse PC-3 xenograft, PC-3 tumour	intravenous, 3.7 MBq, 60 min		maximum tumour uptake	4.77 ± 0.96 %ID/g
N=C(N)NCCC[C@@H]1NC(=O)[C@H](CCCCNC(=O)CCOCCOCCOCCOCCNC(=O)CC[C@H](NC(=O)CCOCCOCCOCCOCCNC(=O)CC[C@H](NC(=O)CN2CCN(CC(=O)O)CCN(CC(=O)O)CCN(CC(=O)O)CC2)C(=O)NCCOCCOCCOCCOCCC(=O)N[C@@H](CCC(=O)NCCOCCOCCOCCOCCC(=O)NCCCC[C@@H]2NC(=O)[C@@H](Cc3ccccc3)NC(=O)[C@H](CC(=O)O)NC(=O)CNC(=O)[C@H](CCCNC(=N)N)NC2=O)C(=O)NCCOCCOCCOCCOCCC(=O)NCCCC[C@@H]2NC(=O)[C@@H](Cc3ccccc3)NC(=O)[C@H](CC(=O)O)NC(=O)CNC(=O)[C@H](CCCNC(=N)N)NC2=O)C(=O)NCCOCCOCCOCCOCCC(=O)NCCCC[C@@H]2NC(=O)[C@@H](Cc3ccccc3)NC(=O)[C@H](CC(=O)O)NC(=O)CNC(=O)[C@H](CCCNC(=N)N)NC2=O)NC(=O)[C@@H](Cc2ccccc2)NC(=O)[C@H](CC(=O)O)NC(=O)CNC1=O [indium-111 labelled]		athymic nude mice, female, U-87 MG glioma xenograft, tumour and kidney	intravenous, 0.5 h	relative to: tumour over kidney	tumour to tissue ratio	0.99 ± 0.19
CSCC[C@H](NC(=O)[C@H](CC(C)C)NC(=O)[C@H](Cc1c[nH]cn1)NC(=O)CNC(=O)[C@@H](NC(=O)[C@H](C)NC(=O)[C@H](Cc1c[nH]c2ccccc12)NC(=O)[C@H](CCC(N)=O)NC(=O)CCCCCNC(=O)CNC(=O)CNC(=O)CNC(=O)CSC(C)=O)C(C)C)C(N)=O [technetium-99m labelled]		Swiss mouse, lung	intravenous, 18.5 MBq, 240 min		tissue uptake	0.13 ± 0.03 %ID/g
CC(C)C[C@H](NC(=O)[C@@H]1CCCN1C(=O)[C@H](CCCCN)NC(=O)[C@@H](N)CO)C(=O)N1CCC[C@H]1C(=O)N[C@@H](CCC(=O)O)C(=O)N[C@H](C(=O)N[C@H](C(=O)N[C@@H](CC(=O)O)C(=O)N[C@@H](CCC(=O)O)C(=O)N[C@@H](Cc1ccc(O)cc1)C(=O)N[C@@H](Cc1cn(CCOCCOCCOCCNC(=O)CCc2ccc(O)c(CN(CCN(CC(=O)O)Cc3cc(CCC(=O)NCCCC[C@H](NC(=O)N[C@@H](CCC(=O)O)C(=O)O)C(=O)O)ccc3O)CC(=O)O)c2)nn1)C(=O)O)[C@@H](C)O)C(C)C [gallium-68 labelled]		NMRI nu/nu mouse, LNCaP tumour, tumour	10 MBq, high molar activity		standardised uptake value	1.22 g/g
CCCC[C@H](NC(=O)COCCOCCNC(=O)c1ccc(NN)nc1)C(=O)N[C@H]1CC(=O)NCCCC[C@@H](C(N)=O)NC(=O)[C@H](Cc2c[nH]c3ccccc23)NC(=O)[C@H](CCCNC(=N)N)NC(=O)[C@@H](Cc2ccccc2)NC(=O)[C@H](Cc2c[nH]cn2)NC1=O [technetium-99m labelled]		C57 mouse, female, B16/F1 melanoma, urine	intravenous, 0.037 MBq, 2 h		excreted dose	93.2 ± 1.91%
N=C(N)NCCC[C@@H]1NC(=O)[C@H](CCCCNC(=O)CC[C@H](NC(=O)CCOCCOCCOCCOCCNC(=O)CC[C@H](NC(=O)CN2CCN(CC(=O)O)CCN(CC(=O)O)CCN(CC(=O)O)CC2)C(=O)NCCOCCOCCOCCOCCC(=O)N[C@@H](CCC(=O)NCCCC[C@@H]2NC(=O)[C@@H](Cc3ccccc3)NC(=O)[C@H](CC(=O)O)NC(=O)CNC(=O)[C@H](CCCNC(=N)N)NC2=O)C(=O)NCCCC[C@@H]2NC(=O)[C@@H](Cc3ccccc3)NC(=O)[C@H](CC(=O)O)NC(=O)CNC(=O)[C@H](CCCNC(=N)N)NC2=O)C(=O)NCCCC[C@@H]2NC(=O)[C@@H](Cc3ccccc3)NC(=O)[C@H](CC(=O)O)NC(=O)CNC(=O)[C@H](CCCNC(=N)N)NC2=O)NC(=O)[C@@H](Cc2ccccc2)NC(=O)[C@H](CC(=O)O)NC(=O)CNC1=O [indium-111 labelled]		athymic nude mice, female, U-87 MG glioma xenograft, tumour and lungs	intravenous, 24 h	relative to: tumour over lungs	tumour to tissue ratio	6.76 ± 3.99
N=C(N)NCCC[C@@H]1NC(=O)[C@H](CCCCNC(=O)CCc2cn(CCC[C@@H]3O[C@H](COC(=O)NCCNC(=O)CN4CCN(CC(=O)O)CCN(CC(=O)O)CCN(CC(=O)O)CC4)[C@@H](O)[C@H](O)[C@H]3O)nn2)NC(=O)[C@@H](Cc2ccccc2)NC(=O)[C@H](CC(=O)O)NC(=O)CNC1=O [gallium-68 labelled]	PET	female NMRI nu/nu mice, U-87 MG xenograft, normal brain	intravenous, 10 MBq, hour 2 of recording		SUVmean	0.06 ± 0.01 SUV

Some of these lines once more:
SMILES	assay	system	setting	how to read	quantity	result
N=C(N)NCCC[C@@H]1NC(=O)[C@H](CCCCNC(=O)CCOCCOCCOCCOCCNC(=O)CN2CCN(CC(=O)O)CCN(CC(=O)O)CCN(CC(=O)O)CC2)NC(=O)[C@@H](Cc2ccccc2)NC(=O)[C@H](CC(=O)O)NC(=O)CNC1=O [indium-111 labelled]		athymic nude mice, female, U-87 MG glioma xenograft, tumour and liver	intravenous, 0.5 h	relative to: tumour over liver	tumour to tissue ratio	1.34 ± 0.2
CCCC[C@H](NC(=O)CCCCCCCNC(=O)c1ccc(NN)nc1)C(=O)N[C@H]1CC(=O)NCCCC[C@@H](C(N)=O)NC(=O)[C@H](Cc2c[nH]c3ccccc23)NC(=O)[C@H](CCCNC(=N)N)NC(=O)[C@@H](Cc2ccccc2)NC(=O)[C@H](Cc2c[nH]cn2)NC1=O [technetium-99m labelled]		C57 mouse, B16/F1 melanoma, lung	intravenous, 24 h		uptake	0.14 ± 0.02 %ID/g
